Measured values collected from several papers.
Lines come from different studies, so protocols differ. Several values in a cell are separate wells, animals, samples, runs or records. Numbers after ± are the reported error.

For `CS(=O)(=O)n1cc2c(n1)CN([C@H]1CO[C@H](c3cc(F)ccc3F)[C@@H](N)C1)C2`, the AUC(0-last) was 0.15 µM·h (healthy male human, plasma; oral, 0.5 mg, fasted single dose).
The AUC(0-t) of `C[C@@H]1O[C@@H](OC[C@H]2O[C@@H](Oc3c(-c4ccc(O)c(O)c4)oc4cc(O)cc(O)c4c3=O)[C@H](O)[C@@H](O)[C@@H]2O)[C@H](O)[C@H](O)[C@H]1O` is reported as 0.0853 ± 0.0146 µg·h/mL (UPLC-MS/MS; Wistar rat, microcirculation dysfunction model, plasma; oral, 100 mg/kg Salvia miltiorrhiza stem-leaf extract FT).
With `COc1cccc(N2CCN(C3=Nc4c(F)cccc4[C@H](CC(=O)O)N3c3cc(C(F)(F)F)ccc3OC)CC2)c1` the AUC(0-last) was 32.5 ± 9.28 µg·h/mL (UHPLC-MS/MS; healthy women, plasma; intravenous infusion, 240 mg single dose, 30 min infusion, HPβCD formulation).
For `Cc1cc(Nc2cc3ncccc3c(N[C@@H]3C[C@H]4CC[C@@H](C3)N4CCC#N)n2)n[nH]1`, the Cmax was 545 ng/mL (dog, female, plasma; oral, 100 mg/kg/day, week 28 day 197, 39-week repeat dose; mean).
`CC1=C2C[C@H]3[C@@H](CC[C@@H]4C[C@H](NS(C)(=O)=O)CC[C@@]43C)[C@@H]2CC[C@@]2(C1)O[C@@H]1C[C@H](C)CN[C@H]1[C@H]2C` has a Tmax of 6 h (patients, plasma; oral, 200 mg daily, day 22, cycle 1).
For `CCCC(CCC)C(=O)O`, the AUCinf breakpoint was greater than 8680 µg·h/mL (regression tree, refers to: chills; human, plasma; intravenous, dose not given).
For `COc1cccc(-c2ccc(NC(=O)C3=C(C(=O)O)CCC3)c(F)c2)c1`, the AUC(0-24h) was 107 µg·h/mL (human, male, plasma; oral, 50 mg once daily, day 0, geometric mean, pre-dosed).
Under “tumour to tissue ratio”, `CCCC[C@H](NC(=O)CN1CCC(NC(=O)CN2CCN(CC(=O)O)CCN(CC(=O)O)CCN(CC(=O)O)CC2)CC1)C(=O)N[C@H]1CC(=O)NCCCC[C@@H](C(N)=O)N(C)C(=O)[C@H](Cc2c[nH]c3ccccc23)N(C)C(=O)[C@H](CCCNC(=N)N)N(C)C(=O)[C@@H](Cc2ccccc2)NC(=O)[C@H](Cc2c[nH]cn2)N(C)C1=O` [gallium-68 labelled] is recorded as 4.19 ± 1.8 (C57BL/6J mice with B16-F10 melanoma, tumour over bone; intravenous, 1 h, with: MC1R inhibitor BMS 470539 0.5 mg co-injected).
With `COc1cc(CNC(=O)CCCC/C=C/C(C)C)ccc1O` the EC20 was greater than 200 µM (cytochrome c release, ELISA; BALB/cByJ female mouse liver mitochondria; 30 min; relative to: alamethicin maximal release).
With `COc1ccc(-c2coc3cc(O)ccc3c2=O)cc1O` the accuracy was 92.2 % nominal (extracted rat plasma, autosampler; 563 ng/mL, 24 h, 4 °C, post-preparative stability, high QC).
`C1CCC(C(CC2CCCCN2)C2CCCCC2)CC1` (stereo not drawn) has an EC20 of less than 25 µM (cytochrome c release, ELISA; BALB/cByJ female mouse liver mitochondria; 30 min; relative to: alamethicin maximal release).
The AUC(0-tau) range of `Cn1c(-c2ccc(C(N)=O)cc2F)nnc1C(C)(C)Oc1c(F)cc(Cl)cc1F` is reported as 1.01 to 3.31 µg·h/mL (healthy young Japanese subjects, plasma; oral, 10 mg once daily, day 18, 14 days dosing).
The intrinsic clearance of `CC(C)NCC1CCc2cc(CO)c([N+](=O)[O-])cc2N1` (stereo not drawn) is reported as 132 µL/min/mg (mouse liver microsomes; 1 µM, pH 7.4, 0.5 mg protein/mL).
Under “free concentration ratio”, `Cn1c(=O)c2c([nH]c(=O)n2C)n(C)c1=O` is recorded as 5 (human hemodialysis patients, plasma ultrafiltrate; pre-treatment; relative to: hemodialysis over normal subjects).
Under “single disulfide form”, `CC[C@H](C)[C@@H]1NC(=O)[C@@H]2CSSC[C@H](NC(=O)[C@H](C(C)C)NC(=O)[C@H]([C@@H](C)CC)NC(=O)[C@H](C(C)C)NC(=O)[C@@H](NC(=O)[C@H](CCCCN)NC(=O)[C@@H](N)CCCNC(=N)N)CSSC[C@@H](C(=O)N[C@@H](CCCNC(=N)N)C(=O)O)NC(=O)[C@H](CC(C)C)NC(=O)[C@H]([C@@H](C)CC)NC1=O)C(=O)N[C@@H](CCCNC(=N)N)C(=O)N[C@@H](CCCNC(=N)N)C(=O)N[C@@H](CC(N)=O)C(=O)N[C@@H](CCCNC(=N)N)C(=O)N[C@@H](CCCNC(=N)N)C(=O)N2` is recorded as 8% (LC-MS; PBS; 0.1 mg/mL).
For `CC(C)[C@@H](C)[C@@]1(C)CC[C@]2(C)[C@H]3CC[C@@H]4[C@@]5(COC[C@@]4(C)[C@@H](OC[C@](C)(N)C(C)(C)C)[C@H](n4ncnc4-c4ccncc4)C5)C3=CC[C@@]2(C)[C@@H]1C(=O)O`, “concentration at 24 h” read 385 ng/mL (human, both sexes, plasma; oral, 1250 mg day 1, then 750 mg days 2 and 3, 24 h, day 3, geometric mean).
`CCCC[C@@H]1NC(=O)[C@@H](NC(=O)[C@H](CCC(=O)O)NC(=O)CNC(=O)CN2CCN(CC(=O)O)CCN(CC(=O)O)CCN(CC(=O)O)CC2)CCCCNC(=O)C[C@@H](C(N)=O)NC(=O)[C@H](C(C)C)NC(=O)[C@@H]2CCCN2C(=O)[C@H](CCCNC(=N)N)NC(=O)CNC(=O)[C@H](Cc2c[nH]c3ccccc23)NC(=O)[C@H](CCCNC(=N)N)NC(=O)[C@@H](Cc2ccccc2)NC(=O)[C@H](Cc2c[nH]cn2)NC(=O)[C@H](CCC(=O)O)NC1=O` [indium-111 labelled] gave a tissue uptake of 0.03 ± 0.02 %ID/g (normal C57 mice, blood; intravenous, 0.037 MBq, 24 h).
With `CN1C(C(=O)Nc2ccccn2)=C(O)c2ccccc2S1(=O)=O` the EC20 was greater than 200 µM (mitochondrial swelling; BALB/cByJ female mouse liver mitochondria; 30 min, with: succinate + rotenone; relative to: CaCl2 maximal swelling).
With `Cn1cnc2c1c(=O)[nH]c(=O)n2C` the mean concentration was 348 nM (human, fasted baseline, cerebrospinal fluid).
With `CNCc1ccc(-c2[nH]c3cc(F)cc4c3c2CCNC4=O)cc1` the AUC(0-t) was 7.05 µg·h/mL (human, fasted, plasma; oral, 600 mg, 24 h, single dose, median).
`CC(C)(CC(=O)N1CCCC1)NCC(=O)N1C[C@@H](F)C[C@H]1C#N`: “AUC(0-tau) at steady state” 1.42 µg·h/mL (Chinese type 2 diabetes patients, plasma; oral, 100 mg once daily, multiple doses).
`CC[C@H](C)[C@H](NC(=O)[C@H](Cc1ccc(O)cc1)NC(=O)[C@@H](NC(=O)[C@H](CCCNC(=N)N)NC(=O)[C@@H](N)CC(=O)O)C(C)C)C(=O)N[C@@H](Cc1cnc[nH]1)C(=O)N1CCC[C@H]1C(=O)N[C@@H](Cc1ccccc1)C(=O)O` gave an intact peptide of greater than 70% (HPLC; NRK-52E nuclear extract; 0.5 nM, 120 min, pH 7.4, 37 °C).
`CC[C@@H]1C(=O)N(C)c2cnc(Nc3ccc(C(=O)N[C@H]4CC[C@H](N5CCN(CC6CC6)CC5)CC4)cc3OC)nc2N1C(C)C` gave a median Tmax of 2 h (human, plasma; intravenous infusion, 50 mg over 2 h, first infusion).
For `CN(CCOc1ccc(CC2SC(=O)NC2=O)cc1)c1ccccn1` (stereo not drawn), the MRT(0-24 h) was 3.04 ± 0.79 h (Sprague-Dawley rat, female, plasma; intraperitoneal, 5 mg/kg of dasatinib, with: dasatinib co-dosed).
`C[C@@H](O)[C@H]1C(=O)N2C(C(=O)O)=C(S[C@@H]3CN[C@H](C(=O)N(C)C)C3)[C@H](C)[C@H]12`: “time above MIC” 177 min (microdialysis; pig (Danish Landrace), cortical bone; iv infusion, 1000 mg over 10 min, MIC 0.25 µg/mL, with: vancomycin co-administered).
For `COc1cc2c(Nc3ccc(Br)cc3F)ncnc2cc1OCC1CCN(C)CC1`, “elimination rate constant” read 0.42 h⁻¹ (male FVB mice, brain; intravenous, 5 mg/kg).
The AUC(0-t) of `CCCCC1(CCCC)CN(c2ccccc2)c2cc(SC)c(OCC(=O)N[C@@H](C(=O)NCC(=O)O)c3ccccc3)cc2S(=O)(=O)C1` is reported as 0.00345 µg·h/mL (human, plasma; oral, 20 mg once daily, day 14, geometric mean).
Under “cathodic peak potential”, `CC1=C(COc2ccc(Br)cc2)C(=O)c2ccccc2C1=O` is recorded as -0.627 V (cyclic voltammetry; DMSO; first wave, vs Ag/AgCl).
`N[C@@H](CC(=O)O)Cn1nnc(-c2ccc(Oc3ncc(Cl)cc3F)cc2)n1` has a concentration of roughly 33 ng/mL (human, blood; 20 mg single dose, 24 h).
The AUC of `CCCCCCCCCCCCCCC[C@H](O)[C@@H](N)CO` is reported as 82.7 µM·h (human, phase I, plasma; intravenous, 480 mg/m^2, day 1, monotherapy).
`CO[C@H]1C[C@@H]2CC[C@@H](C)[C@@](O)(O2)C(=O)C(=O)N2CCCC[C@H]2C(=O)O[C@H]([C@H](C)C[C@@H]2CC[C@@H](O)[C@H](OC)C2)CC(=O)[C@H](C)/C=C(\C)[C@@H](O)[C@@H](OC)C(=O)[C@H](C)C[C@H](C)/C=C/C=C/C=C/1C` gave an AUC of 1.08 µg·h/mL (human, whole blood; oral, 20 mg, mean).
The Ctrough of `CS(=O)(=O)n1cc2c(n1)CN([C@H]1CO[C@H](c3cc(F)ccc3F)[C@@H](N)C1)C2` is reported as 16.4 nM (healthy Japanese men, plasma; oral, 25 mg once weekly, day 15).
With `CCN1CCN(c2ccc(Nc3cc(N(C)C(=O)Nc4c(Cl)c(OC)cc(OC)c4Cl)ncn3)cc2)CC1` the AUC(0-t) was 0.1 µg·h/mL (LC-MS/MS; juvenile female Crl:WI(Han) rats, plasma; oral gavage, 0.3 mg/kg/day, postnatal day 17).
With `Cc1c2oc3c(C)ccc(C(=O)N[C@@H]4C(=O)N[C@H](C(C)C)C(=O)N5CCC[C@H]5C(=O)N(C)CC(=O)N(C)[C@@H](C(C)C)C(=O)O[C@@H]4C)c3nc-2c(C(=O)N[C@@H]2C(=O)N[C@H](C(C)C)C(=O)N3CCC[C@H]3C(=O)N(C)CC(=O)N(C)[C@@H](C(C)C)C(=O)O[C@@H]2C)c(N)c1=O` the AUC(0-6h) was 0.152 µg·h/mL (mouse, FVB wild type, plasma; intravenous, 0.5 mg/kg).
Under “fraction absorbed ratio”, `CCOc1ccc(Cc2cc([C@]34OC[C@](CO)(O3)[C@@H](O)[C@H](O)[C@H]4O)ccc2Cl)cc1` is recorded as > 100% and ~100% (14C microtracer urinary excretion; human, fasted; oral; relative to: test over reference geometric means).
`CC1=NS(=O)(=O)c2cc(Cl)ccc2N1` gave an EC20 of greater than 200 µM (cytochrome c release, ELISA; BALB/cByJ female mouse liver mitochondria; 30 min; relative to: alamethicin maximal release).

For quick reference, copied from above:
The AUC of `CCCCCCCCCCCCCCC[C@H](O)[C@@H](N)CO` is reported as 82.7 µM·h (human, phase I, plasma; intravenous, 480 mg/m^2, day 1, monotherapy).
With `CNCc1ccc(-c2[nH]c3cc(F)cc4c3c2CCNC4=O)cc1` the AUC(0-t) was 7.05 µg·h/mL (human, fasted, plasma; oral, 600 mg, 24 h, single dose, median).
Under “fraction absorbed ratio”, `CCOc1ccc(Cc2cc([C@]34OC[C@](CO)(O3)[C@@H](O)[C@H](O)[C@H]4O)ccc2Cl)cc1` is recorded as > 100% and ~100% (14C microtracer urinary excretion; human, fasted; oral; relative to: test over reference geometric means).
Under “free concentration ratio”, `Cn1c(=O)c2c([nH]c(=O)n2C)n(C)c1=O` is recorded as 5 (human hemodialysis patients, plasma ultrafiltrate; pre-treatment; relative to: hemodialysis over normal subjects).
With `Cc1c2oc3c(C)ccc(C(=O)N[C@@H]4C(=O)N[C@H](C(C)C)C(=O)N5CCC[C@H]5C(=O)N(C)CC(=O)N(C)[C@@H](C(C)C)C(=O)O[C@@H]4C)c3nc-2c(C(=O)N[C@@H]2C(=O)N[C@H](C(C)C)C(=O)N3CCC[C@H]3C(=O)N(C)CC(=O)N(C)[C@@H](C(C)C)C(=O)O[C@@H]2C)c(N)c1=O` the AUC(0-6h) was 0.152 µg·h/mL (mouse, FVB wild type, plasma; intravenous, 0.5 mg/kg).
For `CC(C)[C@@H](C)[C@@]1(C)CC[C@]2(C)[C@H]3CC[C@@H]4[C@@]5(COC[C@@]4(C)[C@@H](OC[C@](C)(N)C(C)(C)C)[C@H](n4ncnc4-c4ccncc4)C5)C3=CC[C@@]2(C)[C@@H]1C(=O)O`, “concentration at 24 h” read 385 ng/mL (human, both sexes, plasma; oral, 1250 mg day 1, then 750 mg days 2 and 3, 24 h, day 3, geometric mean).
